Measured values pooled from the literature.
Numbered parts are unrelated; each lists some results of a single study. Substitutions count along the parent as printed.

Study 1 — method: protein-binding microarray; form: double-stranded DNA, one strand shown; sample: in vitro; concentration: not given; direction: higher = stronger binding
Target: Max-binding protein MNT, bHLH-zipper, MAX partner unstated (MNT, Homo sapiens, UniProt Q99583, residues 220-300)
Setting: k-mer, scored over probes, only values ≥0.25
Construct (chain): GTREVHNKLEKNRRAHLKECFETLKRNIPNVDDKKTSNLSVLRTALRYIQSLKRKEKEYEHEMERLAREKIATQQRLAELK
| Strand | E-score |
| --- | --- |
| GCCATGCA | 0.351 |
| ACGCGTCT | 0.271 |
| GTGGCCAC | 0.369 |
| CGTGTAAC | 0.337 |
| CACACATG | 0.447 |
| ATGCGTGC | 0.396 |
| CGTGCACA | 0.355 |
| ACTGCACG | 0.362 |
| CCCACCCC | 0.429 |
| ATAGCACG | 0.365 |
| AACCACGA | 0.27 |
| ACCACCTG | 0.333 |
| CGCGCACA | 0.277 |
| GAGCACGA | 0.305 |
| CACGCTTC | 0.389 |
| GCGCACGA | 0.367 |
| AGCACGGG | 0.324 |
| CCCCGGCA | 0.291 |
| CATGAGGA | 0.401 |
| ATATCACG | 0.285 |
| ATGCGGCG | 0.283 |
| CGTGAACA | 0.289 |
| CATGCTCC | 0.357 |
| ATCTCGTG | 0.377 |
| CACCCCAC | 0.355 |

Study 2 — method: protein binding microarray; form: double-stranded DNA, one strand shown; sample: in vitro; concentration: not given; relative to: not given; direction: higher = stronger binding
Target: Histone acetyltransferase KAT6A, winged helix 2, GST fusion (KAT6A, Homo sapiens, UniProt Q92794, residues 85-181)
Setting: 8-mer, flanks averaged, mean of 2 arrays, mostly near background
Target sequence (chain): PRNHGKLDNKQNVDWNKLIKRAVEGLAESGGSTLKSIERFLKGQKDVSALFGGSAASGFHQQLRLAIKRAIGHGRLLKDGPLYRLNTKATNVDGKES
| Strand | E-score |
| --- | --- |
| AACAACGC | 0.0471 |
| CAGAGCCA | 0.0121 |
| ACTGTCAC | -0.112 |
| ACTTTCTG | 0.0666 |
| ATTTACCC | -0.0533 |
| CGGTAATC | -0.207 |
| AGACATGC | -0.11 |
| AAATCTGC | 0.0686 |
| CGTCGCCC | 0.0724 |
| AGAGGGCC | 0.0751 |
| ATTTGTCC | -0.0288 |
| AGATCCTA | -0.0701 |
| CTCTAGAG | -0.212 |
| GTTCAAAC | -0.011 |
| TGGACAAA | 0.0194 |
| TCTTGGCA | 0.105 |

Study 3 — method: RNA Bind-n-Seq; form: RNA; sample: in vitro; concentration: 100 nM; relative to: input RNA pool; direction: higher = stronger binding
Target: RING finger protein unkempt homolog, zinc fingers 1-6, SBP tag (UNK, Homo sapiens, UniProt Q9C0B0, residues 30-357)
Sequence of UniProt Q9C0B0 (30-357, looked up): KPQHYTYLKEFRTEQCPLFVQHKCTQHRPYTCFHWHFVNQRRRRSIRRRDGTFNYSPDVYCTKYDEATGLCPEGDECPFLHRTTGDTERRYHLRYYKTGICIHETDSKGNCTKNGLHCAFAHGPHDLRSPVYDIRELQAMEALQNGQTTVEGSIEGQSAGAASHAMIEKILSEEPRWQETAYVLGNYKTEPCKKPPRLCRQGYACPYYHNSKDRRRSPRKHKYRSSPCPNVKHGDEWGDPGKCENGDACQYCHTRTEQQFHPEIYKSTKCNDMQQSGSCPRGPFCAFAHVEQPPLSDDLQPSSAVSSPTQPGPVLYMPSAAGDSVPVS
Setting: RNA with constant flanks, vertebrate orthologous sites, ends assumed
| Strand | bound/input enrichment [ratio] |
| --- | --- |
| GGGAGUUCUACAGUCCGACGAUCUGAGCGUCUAUCCGGUUGUAGAGAUAAUUCUUCACGAGGCACUUUGGCUCUAUUUAAUCGUAUUUACAUAUCUAUUUUUUAUAAAUAGCAGUAUAAAUUCUAAGGGGACUUGGUGUUUAUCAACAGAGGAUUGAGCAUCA | 0.412 |
| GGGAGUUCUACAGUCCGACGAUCGUUGGGCCAUGACCCCUAUAGAUUAGGUCAUGAUGCUUACAGGUUAGGACAGGACCCUUAUAGAUUAGGCCACGAUCCCUACAGACUAACUCCUGAUCCCUACAGGAUGUCACCUAGACCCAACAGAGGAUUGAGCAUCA | 0.702 |
| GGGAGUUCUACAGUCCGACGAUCGCAUCACAGAUUACUCUUGUUUCUGUAGCAGAUAGAAAAUUUUGCAACUAAUGUAUACAUCUCAUUGAGCUGAAUAUAUUUUUUAUUAGCCUGUAAAUAAAUAUACUCUUCUUCAUUGCACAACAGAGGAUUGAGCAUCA | 0.783 |
| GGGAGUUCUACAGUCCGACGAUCGAACCUAAACGUAUAGCAAAAGAGCCAAGCAGUAGCAGUUUUUGUAAAUGUAAAAAUAAUUAGAUCCAGACUUUGUUUCCUUCCAUUUUAAAAAUAAAAAAUACCUCAGUGCUAUGUUUUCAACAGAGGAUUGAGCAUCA | 1.07 |
| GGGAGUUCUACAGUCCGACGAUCAGAAAGUUACAGGCCAGACUCUGAAAGUAGGAGCACAGGAUCCUGGUUAUCAUCAUCUCUGAGGAACAGAUGCACACCUCUCUUUUCCAGACGAAGAAGAGAAGGAAGAGAUGAAUCCUCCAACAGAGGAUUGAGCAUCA | 0.277 |
| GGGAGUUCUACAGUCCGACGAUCCUCUAUGGGCCUCGCAGAGUUGAAGUAAUGGAAGAGGACAGUGAACAGUAAUCUUCAUUUUAGUAUUUAUGCUUAGAUGUGAAAUAAAUGUUAUUUGUUGAUCAUUUCUAUAAUCCAGAACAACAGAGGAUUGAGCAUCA | 0.4 |
| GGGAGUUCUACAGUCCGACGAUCUCCAGUCUUACACUUAUGGUUGGCCUCAAAUCUAUUGCAUUUAUGAUAAUGUAGUAUAUCUAGUUGAGUUUAAUAUUUUUUUAUUAGCCUGUAAAUAAAGAUGGCAUCUUCUACAUUAAACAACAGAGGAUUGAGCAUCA | 0.588 |
| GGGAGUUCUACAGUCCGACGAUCCCUCUAGUUCUUAAGAACCAACACUCUUAAAAGAUUUAGGAAGAAGUUUACGACAUAAUCUAGUUUACGAAGAAAACUUGUGCUAGAAUACUUUUUAAAAAUAAUUUUUGAAUACCAUUACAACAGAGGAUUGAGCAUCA | 0.532 |
| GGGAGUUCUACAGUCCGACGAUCCCCUCUGAACCCCAUAUCUUCUGUUUCAUAGUGCAGAAGUAUUCUUUUCAAUUAUAUUACUAGUGGACUUGUUUUAAUUUUAGAGAAACUUUCAGUACAGAUACUGUGAGCUUACAUGGACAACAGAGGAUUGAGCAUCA | 2.95 |
| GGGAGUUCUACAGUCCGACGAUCGCACAUGCCGCUAUCACCAAAAGCAAAUUGCCAUUUUUCAAAUUUCAUCCAGAGCCGUUUUAGUGUUUCCUAUUCCCUGCGCUUCCCAUUACUUUCAGUGAUGAAAGUUCUCCUCUGACACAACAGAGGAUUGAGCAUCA | 1.54 |
| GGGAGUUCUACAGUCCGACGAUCAUUUAAAAUGUGUUUAGUUAUAUUUAAUGAUCUCAUUCCUGAGUUCCUGUUUCACUGAAGUAGCUUCCAUUUCUAUUAUCGUAGUCAUGAGUAAAUAGAAGGUUUGUGCCAGUAGAGACUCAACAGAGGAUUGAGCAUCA | 0.373 |

Study 4 — method: protein-binding microarray; form: double-stranded DNA, one strand shown; sample: in vitro; concentration: 940 nM top; setting: 60-bp whole probe; added: salmon DNA 0.4 mg/ml; relative to: random background probes; direction: higher = stronger binding; all sequences stand within: GCCTAGCAC … GTCTTGATTCGCTTGACGCTGCTG
Target: Interferon regulatory factor 5, full length, phosphomimetic (IRF5, Homo sapiens, UniProt Q13568-2, residues 1-514, S451D/S453D/S456D/S462D)
| Strand | fitted relative affinity [z-score] |
| --- | --- |
| GACGAAATCAGTTTCGAGACGTGCTAG | 4.66 |
| TCATGTACATCTCTCTTACTGTGCTAG | 0.991 |
| AACGGTTTCCTTATCCTGACGTGCTAG | 1.48 |
| TTAGTTCTCCTACTGCTTTAGTGCTAG | 0.549 |
| TTAAGTATCGGTTTCGGTTAGTGCTAG | 13.4 |
| TTAGATTTCGGACTGGGTTAGTGCTAG | 0.559 |
| GACCGTTTCGGGTATCGGGACGTGCTA | 4.53 |
| GACGGACTGGGGTTTCGGAACGTGCTA | 2.29 |
| TTTGGACTGGGACTGGGTTAGTGCTAG | -0.327 |
| TTAGGTATCCTGTTCCTTTAGTGCTAG | 0.32 |
| GACGGGTTCGACTATCGGGACGTGCTA | -0.246 |
| TTAGGTCTCGGTATCGGTTTGTGCTAG | 7.14 |
| GACGGACTGGGATTTCGGGACGTGCTA | 0.0882 |
| TCAACTAGGGCATTTAGAACTGTGCTA | -0.527 |
| TTAGGTTTCGGGTTTCGGTTAGTGCTA | 11.7 |
| TTATGTTTCCTTTCCCTTTAGTGCTAG | 1.63 |
| TTAGGTTTCGACTATCTGTTAGTGCTA | 9 |
| TCAGATTTCTTCCCTGTGACTGTGCTA | 1.02 |
| TAAGAACTGGGGTATCGATTAGTGCTA | 2.83 |
| GAGGGTCTCGGTTTCGGGACGTGCTAG | 5.34 |
| GACGGTATCGGGATTCGGGACGTGCTA | 3.47 |
| CTAGATATCGGGTTTCGATTAGTGCTA | 5.12 |

Study 5 — method: DHFR PCA, deep sequencing; sample: yeast; added: (+)-ABA 17 µM; relative to: wild-type fitted maximum; direction: higher = stronger binding
Target: ABI1, truncated, D143A, DHFR fusion (Arabidopsis thaliana)
Setting: methotrexate growth selection, single substitutions
Starting sequence: PYL1, truncated, DHFR fusion (Arabidopsis thaliana); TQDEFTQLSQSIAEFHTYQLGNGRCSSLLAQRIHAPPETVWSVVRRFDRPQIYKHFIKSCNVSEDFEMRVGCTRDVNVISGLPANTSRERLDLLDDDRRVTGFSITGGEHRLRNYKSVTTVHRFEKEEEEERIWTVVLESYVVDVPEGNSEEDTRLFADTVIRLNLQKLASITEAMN
| Change | relative binding score [%] |
| --- | --- |
| V161C | 44.7 |
| P50E | -6.89 |
| H55I | 87.2 |
| R132E | 111 |
| Y141G | -3.4 |
| E109N | 97.4 |
| S104I | 12.8 |
| I12H | 9.08 |
| E139C | 76 |
| Q2V | 87.6 |
| A175T | 89.2 |
| V76D | -12 |
| I52C | 80.3 |
| Y18Q | 62.4 |
| Q51V | 1.23 |
| L8M | 71.8 |
| E151I | 87.4 |
| R113A | 88.8 |
